{"data": "Experimental data from different studies", "note": "Parts stem from different laboratories: compare values within a part only. Substitutions count along the parent as printed."}
{"data": "Series 1", "target": "CCND2, cyclin fold, Cln2 fusion (human)", "method": "yeast growth competition, sequencing", "sample": "yeast", "notes": "weak parent motif", "baseline": "not given", "direction": "higher = stronger binding", "parent": "ORC1 docking peptide (human); PRARKRLELGNLG"}
{"Change": "PRARKRIELGNLG [L7I]", "normalised enrichment score": 0.279}
{"Change": "PRARKRLELGNHG [L12H]", "normalised enrichment score": 0.319}
{"Change": "PRARKRGELGNLG [L7G]", "normalised enrichment score": -0.0747}
{"Change": "PRARKRLELGNAG [L12A]", "normalised enrichment score": 0.0384}
{"Change": "PRARKRSELGNLG [L7S]", "normalised enrichment score": 0.173}
{"Change": "PRADKRLELGNLG [R4D]", "normalised enrichment score": 0.0733}
{"Change": "WRARKRLELGNLG [P1W]", "normalised enrichment score": 0.0292}
{"Change": "PRQRKRLELGNLG [A3Q]", "normalised enrichment score": 0.377}
{"Change": "PRARKREELGNLG [L7E]", "normalised enrichment score": 0.38}
{"Change": "PRARPRLELGNLG [K5P]", "normalised enrichment score": 0.655}
{"Change": "MRARKRLELGNLG [P1M]", "normalised enrichment score": -0.00802}
{"Change": "PRARKRLELGNLT [G13T]", "normalised enrichment score": -0.118}
{"Change": "PHARKRLELGNLG [R2H]", "normalised enrichment score": 0.0624}
{"Change": "PRARKRLELGWLG [N11W]", "normalised enrichment score": 0.237}
{"Change": "PRARKRYELGNLG [L7Y]", "normalised enrichment score": 0.15}
{"Change": "PRARKRLELCNLG [G10C]", "normalised enrichment score": -0.00546}
{"Change": "PRARKRLELGNLP [G13P]", "normalised enrichment score": -0.000133}
{"Change": "PRARKALELGNLG [R6A]", "normalised enrichment score": -0.13}
{"Change": "PRAGKRLELGNLG [R4G]", "normalised enrichment score": 0.19}
{"Change": "PRASKRLELGNLG [R4S]", "normalised enrichment score": 0.454}
{"Change": "VRARKRLELGNLG [P1V]", "normalised enrichment score": -0.0275}
{"Change": "PYARKRLELGNLG [R2Y]", "normalised enrichment score": -0.294}
{"data": "Series 2", "target": "Histone acetyltransferase KAT6A, winged helix 2, GST fusion (KAT6A, Homo sapiens, UniProt Q92794, residues 85-181)", "method": "protein binding microarray", "molecule type": "double-stranded DNA, one strand shown", "sample": "in vitro", "concentration": "not given", "notes": "8-mer, flanks averaged, mean of 2 arrays, mostly near background", "baseline": "not given", "direction": "higher = stronger binding", "Residues (chain)": "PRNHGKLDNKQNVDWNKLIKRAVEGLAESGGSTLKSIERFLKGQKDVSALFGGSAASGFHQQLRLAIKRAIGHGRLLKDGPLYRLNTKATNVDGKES"}
{"Oligonucleotide": "AAACCCCT", "E-score": -0.028}
{"Oligonucleotide": "AGGCTAGA", "E-score": -0.168}
{"Oligonucleotide": "GTCCTCAC", "E-score": -0.0227}
{"Oligonucleotide": "CCGGGCAA", "E-score": 0.166}
{"Oligonucleotide": "AGGACAAA", "E-score": -0.00817}
{"Oligonucleotide": "AATCTGAC", "E-score": 0.00954}
{"Oligonucleotide": "ATAGGAGG", "E-score": -0.0254}
{"Oligonucleotide": "CCCTTCTA", "E-score": -0.0954}
{"Oligonucleotide": "CCCAAACA", "E-score": 0.168}
{"Oligonucleotide": "ACCTGTGA", "E-score": -0.0878}
{"Oligonucleotide": "TACTTACA", "E-score": -0.147}
{"Oligonucleotide": "AAATTGTT", "E-score": 0.0924}
{"Oligonucleotide": "GCTTTCAA", "E-score": 0.119}
{"Oligonucleotide": "CTGCCGGC", "E-score": 0.312}
{"data": "Series 3", "target": "Phosphate system positive regulatory protein PHO4, full length, GST-tagged (PHO4, Saccharomyces cerevisiae, UniProt P07270, residues 1-312)", "method": "competition protein-binding microarray", "molecule type": "double-stranded DNA, one strand shown", "sample": "in vitro", "concentration": "2 µM", "notes": "whole 60-bp probe, lowest competitor level", "added": "Cbf1 competitor, 0.05 µM", "direction": "higher = stronger binding", "shared flanks, not repeated": "… GTCTTGATTCGCTTGACGCTGCTG", "Residues (chain)": "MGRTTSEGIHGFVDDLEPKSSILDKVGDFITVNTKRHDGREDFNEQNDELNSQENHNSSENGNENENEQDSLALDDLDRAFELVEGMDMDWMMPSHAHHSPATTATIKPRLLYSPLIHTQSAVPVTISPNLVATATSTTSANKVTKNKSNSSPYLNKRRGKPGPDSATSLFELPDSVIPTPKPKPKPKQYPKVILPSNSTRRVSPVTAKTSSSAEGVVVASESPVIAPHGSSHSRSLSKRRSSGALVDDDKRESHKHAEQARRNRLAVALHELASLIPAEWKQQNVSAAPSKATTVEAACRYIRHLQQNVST"}
{"Oligonucleotide": "AGGCATACCCTTGTTCATGTGGGGGCATTCAATGGG", "fluorescence intensity": "7200 a.u."}
{"Oligonucleotide": "TTTGTGTGCTACCTGCTCGTGACGGCGGTCTTTTTG", "fluorescence intensity": "6750 a.u."}
{"Oligonucleotide": "CGTAACCAGACGAGTCACGTGTAATTTTGTAACTCA", "fluorescence intensity": "13300 a.u."}
{"Oligonucleotide": "CTACAATTTCCACTCCACGTGAATTTTTTCTCGGAA", "fluorescence intensity": "14200 a.u."}
{"Oligonucleotide": "ACATAGTAGGAAAATAATGTGCGTAGAATGATAAGA", "fluorescence intensity": "5870 a.u."}
{"Oligonucleotide": "CGTCCTAGTGATTGTCACGCTACTTCCATGAGGAAG", "fluorescence intensity": "5660 a.u."}
{"Oligonucleotide": "CATACCCAACCTTTTCACGTGGCTTAAGATATTTGT", "fluorescence intensity": "15100 a.u."}
{"Oligonucleotide": "CTAACGAAGGTTTGCAGTGTGGGTGACAAGCCAAGT", "fluorescence intensity": "5740 a.u."}
{"Oligonucleotide": "CAATCTTTGTCTAGCTTCGTGCTTTTTGGCAAAAGC", "fluorescence intensity": "5750 a.u."}
{"Oligonucleotide": "TTAAGTCTATGCCAGCACATGTGGTGCTCAGTGCTG", "fluorescence intensity": "11300 a.u."}
{"Oligonucleotide": "TGATACAAGTCGTCGTCCGTGACGAAGGATCAGGAA", "fluorescence intensity": "4010 a.u."}
{"data": "Series 4", "target": "Sal-like protein 4, full length isoform A (SALL4, Homo sapiens, UniProt Q9UJQ4, residues 1-1053)", "method": "universal PBM", "molecule type": "double-stranded DNA, one strand shown", "sample": "in vitro", "concentration": "600 nM", "notes": "8-mer, flanks averaged, mean of replicates", "direction": "higher = stronger binding", "chain of UniProt Q9UJQ4 (whole entry, looked up)": "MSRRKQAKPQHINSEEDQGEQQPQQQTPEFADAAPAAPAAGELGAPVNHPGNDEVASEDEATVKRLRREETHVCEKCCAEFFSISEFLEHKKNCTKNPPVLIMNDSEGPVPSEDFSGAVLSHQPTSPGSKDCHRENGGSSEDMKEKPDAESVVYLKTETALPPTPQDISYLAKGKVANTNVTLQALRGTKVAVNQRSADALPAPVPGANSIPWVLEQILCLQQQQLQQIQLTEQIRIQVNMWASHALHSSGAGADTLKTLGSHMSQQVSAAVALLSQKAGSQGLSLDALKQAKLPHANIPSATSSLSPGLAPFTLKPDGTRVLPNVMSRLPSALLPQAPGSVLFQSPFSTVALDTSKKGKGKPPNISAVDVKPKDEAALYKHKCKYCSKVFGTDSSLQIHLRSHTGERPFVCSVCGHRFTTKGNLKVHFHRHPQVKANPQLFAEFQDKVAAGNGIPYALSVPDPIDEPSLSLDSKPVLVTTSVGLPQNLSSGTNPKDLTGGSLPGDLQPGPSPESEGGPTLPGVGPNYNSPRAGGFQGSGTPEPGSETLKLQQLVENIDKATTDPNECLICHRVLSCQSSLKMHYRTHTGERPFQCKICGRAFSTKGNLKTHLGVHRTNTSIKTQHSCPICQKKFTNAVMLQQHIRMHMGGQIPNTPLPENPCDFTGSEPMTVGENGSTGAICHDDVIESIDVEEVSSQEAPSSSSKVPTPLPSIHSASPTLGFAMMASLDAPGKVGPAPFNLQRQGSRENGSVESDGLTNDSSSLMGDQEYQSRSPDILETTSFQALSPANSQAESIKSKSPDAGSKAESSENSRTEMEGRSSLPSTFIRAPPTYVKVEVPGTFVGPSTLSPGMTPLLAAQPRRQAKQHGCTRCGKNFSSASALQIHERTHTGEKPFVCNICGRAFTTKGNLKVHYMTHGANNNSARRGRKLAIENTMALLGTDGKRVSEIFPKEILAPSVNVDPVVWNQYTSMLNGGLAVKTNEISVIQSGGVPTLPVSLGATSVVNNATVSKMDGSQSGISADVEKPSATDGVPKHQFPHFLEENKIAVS"}
{"Oligonucleotide": "AAACGACC", "E-score": -0.0685}
{"Oligonucleotide": "ATCACACG", "E-score": 0.208}
{"Oligonucleotide": "AACTGGAA", "E-score": 0.0669}
{"Oligonucleotide": "ACTAGGCA", "E-score": -0.119}
{"Oligonucleotide": "AGAACGGC", "E-score": -0.2}
{"Oligonucleotide": "ATCGAATC", "E-score": 0.0486}
{"Oligonucleotide": "ACGGGGAT", "E-score": -0.226}
{"Oligonucleotide": "AACCTCCG", "E-score": -0.207}
{"Oligonucleotide": "GTCAAGAA", "E-score": 0.0814}
{"Oligonucleotide": "CCCATCCC", "E-score": -0.225}
{"Oligonucleotide": "ACGGCACC", "E-score": -0.317}
{"Oligonucleotide": "CGAGCGAC", "E-score": -0.13}
{"Oligonucleotide": "CTCTCTCA", "E-score": 0.0803}
{"Oligonucleotide": "CTCACCCA", "E-score": -0.13}
{"data": "Series 5", "target": "Interferon regulatory factor 3, full length, phosphomimetic (IRF3, Homo sapiens, UniProt Q14653, residues 1-427, S386D/S396D/S398D/S402D/T404D/S405D)", "method": "protein-binding microarray", "molecule type": "double-stranded DNA, one strand shown", "sample": "in vitro", "concentration": "2540 nM top", "notes": "60-bp whole probe", "added": "salmon DNA 0.4 mg/ml", "baseline": "random background probes", "direction": "higher = stronger binding", "shared flanks, not repeated": "GCCTAGCAC … GTCTTGATTCGCTTGACGCTGCTG", "chain of UniProt Q14653 (whole entry, unmodified, looked up)": "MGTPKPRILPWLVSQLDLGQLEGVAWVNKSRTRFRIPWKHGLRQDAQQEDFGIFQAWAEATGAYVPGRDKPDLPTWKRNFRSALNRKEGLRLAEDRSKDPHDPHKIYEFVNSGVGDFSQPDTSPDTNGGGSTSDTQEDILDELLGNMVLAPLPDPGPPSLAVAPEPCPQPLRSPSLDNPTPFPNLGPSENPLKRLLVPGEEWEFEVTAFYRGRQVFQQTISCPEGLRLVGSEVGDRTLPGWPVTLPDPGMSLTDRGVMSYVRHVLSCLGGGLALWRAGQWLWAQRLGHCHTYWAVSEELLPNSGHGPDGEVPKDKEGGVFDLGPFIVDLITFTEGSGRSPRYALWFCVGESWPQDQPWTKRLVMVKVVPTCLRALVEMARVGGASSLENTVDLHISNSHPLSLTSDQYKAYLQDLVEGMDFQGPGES"}
{"Oligonucleotide": "GTTTGTATATATTTTAACCCGTGCTAG", "fitted relative affinity [z-score]": 0.844}
{"Oligonucleotide": "GACGGTAACGGTATCGGGACGTGCTAG", "fitted relative affinity [z-score]": 0.742}
{"Oligonucleotide": "AGAGTTCCAGACAGCTCCCTGTGCTAG", "fitted relative affinity [z-score]": 0.579}
{"Oligonucleotide": "TTAGGTCTCGGTTGCGGTTAGTGCTAG", "fitted relative affinity [z-score]": 1.09}
{"Oligonucleotide": "GACGGTATTCTTATCCTGACGTGCTAG", "fitted relative affinity [z-score]": 0.866}
{"Oligonucleotide": "GACGGTATCGACTTTCGGGTCGTGCTA", "fitted relative affinity [z-score]": 1.6}
{"Oligonucleotide": "TTTTTTTTTTTTTTGTATTTGTGCTAG", "fitted relative affinity [z-score]": 1.71}
{"Oligonucleotide": "CACGGTTCCCTTTTCCTGACGTGCTAG", "fitted relative affinity [z-score]": 5.57}
{"Oligonucleotide": "TTAGGTATCGGGACTGGGGTAGTGCTA", "fitted relative affinity [z-score]": 1.05}
{"Oligonucleotide": "TCACATTTCAATTAGAAACTGTGCTAG", "fitted relative affinity [z-score]": 1.81}
{"data": "Single results of other studies"}
{"Molecule": "EPRS1 (Homo sapiens, UniProt P07814)", "partner": "KHDRBS1 (Homo sapiens, UniProt Q07666)", "method": "cross-linking MS", "sample": "cell fractions", "added": "DSSO", "measurement": "cross-linked residues", "value": "S1136 to K194"}
